Measured values gathered from unrelated publications.
Every numbered part comes from another study and shows a few of its results, in no order.

Block 1
Target: Transcription factor SOX-2, HMG box (Sox2, Mus musculus, UniProt P48432, residues 41-119)
UniProt P48432, sequence (41-119, looked up): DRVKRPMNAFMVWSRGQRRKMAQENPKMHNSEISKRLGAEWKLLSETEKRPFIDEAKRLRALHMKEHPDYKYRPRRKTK
Technique: Spec-seq
Molecule type: double-stranded DNA, one strand shown
Matrix: in vitro
Tested at: not given
Notes: whole probe, mean of replicates
Reference: not given
Reading: lower = stronger binding
| Sequence | relative binding energy |
| --- | --- |
| GAGTCGTCTCGTCAGCACGTCCGTTCCGTAGAGCACTCAGGTC | 1.16 ln ratio |
| GAGTCGTCTCGTCAGCACATGCGTTCCGTAGAGCACTCAGGTC | 0.922 ln ratio |
| GAGTCGTCTCGTCAGCACCATATTGCCGTAGAGCACTCAGGTC | -0.0711 ln ratio |
| GAGTCGTCTCGTCAGCACCATTTCTCCGTAGAGCACTCAGGTC | 0.00321 ln ratio |

Block 2
Target: Sal-like protein 4, full length isoform B (SALL4, Homo sapiens, UniProt Q9UJQ4-2, residues 1-616)
Technique: universal PBM
Molecule type: double-stranded DNA, one strand shown
Matrix: in vitro
Tested at: not given
Notes: 8-mer, flanks averaged, mean of replicates
Reading: higher = stronger binding
Target sequence (chain): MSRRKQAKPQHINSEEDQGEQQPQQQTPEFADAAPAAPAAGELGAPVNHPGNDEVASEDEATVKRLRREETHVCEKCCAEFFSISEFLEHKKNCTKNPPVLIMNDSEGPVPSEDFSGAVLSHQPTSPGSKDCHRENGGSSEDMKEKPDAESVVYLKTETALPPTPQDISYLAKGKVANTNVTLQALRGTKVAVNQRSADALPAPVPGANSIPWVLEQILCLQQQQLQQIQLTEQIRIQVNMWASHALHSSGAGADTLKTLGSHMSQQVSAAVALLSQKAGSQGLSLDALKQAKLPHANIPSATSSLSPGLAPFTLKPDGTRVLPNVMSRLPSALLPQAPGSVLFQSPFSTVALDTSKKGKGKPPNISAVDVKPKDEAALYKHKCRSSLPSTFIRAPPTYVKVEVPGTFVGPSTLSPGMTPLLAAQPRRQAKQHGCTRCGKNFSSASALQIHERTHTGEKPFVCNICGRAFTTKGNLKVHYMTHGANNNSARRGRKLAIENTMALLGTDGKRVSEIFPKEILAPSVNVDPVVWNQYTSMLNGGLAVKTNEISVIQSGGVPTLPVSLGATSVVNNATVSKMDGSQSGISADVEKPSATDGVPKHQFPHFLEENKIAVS
| Sequence | E-score |
| --- | --- |
| ACTCTGGA | 0.089 |
| CCTGCTGA | -0.07 |
| CTTTTAGA | 0.0189 |

Block 3
Target: Histone acetyltransferase KAT6A, winged helix 2, GST fusion (KAT6A, Homo sapiens, UniProt Q92794, residues 85-181)
Technique: protein binding microarray
Molecule type: double-stranded DNA, one strand shown
Matrix: in vitro
Tested at: not given
Notes: 8-mer, flanks averaged, mean of 2 arrays, mostly near background
Reference: not given
Reading: higher = stronger binding
Residues (chain): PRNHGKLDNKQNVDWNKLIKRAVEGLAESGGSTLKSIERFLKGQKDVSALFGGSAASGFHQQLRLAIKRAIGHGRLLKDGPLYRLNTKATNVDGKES
| Sequence | E-score |
| --- | --- |
| ACGAGCAG | 0.00961 |
| GTACTACA | -0.0764 |
| ACGACTGC | -0.125 |
| GAGTGTAA | -0.00194 |
| AGACGGAC | -0.0239 |

Further values, each from its own experiment
| Molecule | target | assay | test system | setting | how to read | quantity | result |
| --- | --- | --- | --- | --- | --- | --- | --- |
| PhoQ, residues 284 288 289 292 302 303 SIHLQL | PhoP, residues 12 14 15 18 19 NQGLL (Escherichia coli, UniProt P23836) | Sort-seq, measured: YFP reporter | E. coli | PhoQ-PhoP variant library, together with: 10 µM Mg2+ | reference: high Mg2+ state, higher = stronger signaling | fold induction | 5.49 |

Excerpt of the above (block 1):
| Sequence | relative binding energy |
| --- | --- |
| GAGTCGTCTCGTCAGCACATGCGTTCCGTAGAGCACTCAGGTC | 0.922 ln ratio |
| GAGTCGTCTCGTCAGCACCATATTGCCGTAGAGCACTCAGGTC | -0.0711 ln ratio |
